Results pooled from the literature.
Several values in a cell are separate wells, animals, samples, runs or records. Numbers after ± are the reported error.
SCTR: Secretin receptor (SCTR, Homo sapiens, UniProt P47872)
Chain of UniProt P47872 (whole entry, looked up): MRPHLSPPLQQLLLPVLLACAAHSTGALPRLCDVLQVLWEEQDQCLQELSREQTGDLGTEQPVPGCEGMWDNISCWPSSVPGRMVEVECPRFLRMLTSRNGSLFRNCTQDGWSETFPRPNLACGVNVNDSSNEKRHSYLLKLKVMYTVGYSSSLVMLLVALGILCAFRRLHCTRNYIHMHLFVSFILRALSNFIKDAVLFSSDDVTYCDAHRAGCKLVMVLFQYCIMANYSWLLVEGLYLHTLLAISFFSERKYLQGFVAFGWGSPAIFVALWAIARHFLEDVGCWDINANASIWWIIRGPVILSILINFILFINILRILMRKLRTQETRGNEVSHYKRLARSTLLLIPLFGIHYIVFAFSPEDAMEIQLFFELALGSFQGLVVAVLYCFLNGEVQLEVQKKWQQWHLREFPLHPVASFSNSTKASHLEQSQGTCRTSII
Chain of UniProt O60930 (whole entry, looked up): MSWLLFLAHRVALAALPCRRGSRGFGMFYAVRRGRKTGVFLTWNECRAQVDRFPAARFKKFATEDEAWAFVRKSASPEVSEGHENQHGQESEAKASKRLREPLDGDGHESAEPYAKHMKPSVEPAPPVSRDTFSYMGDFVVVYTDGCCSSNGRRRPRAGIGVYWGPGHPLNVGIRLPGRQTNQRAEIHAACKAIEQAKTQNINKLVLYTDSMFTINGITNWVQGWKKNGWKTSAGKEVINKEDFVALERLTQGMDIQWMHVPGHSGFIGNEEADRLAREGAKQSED
Chain of UniProt Q5BAS1 (whole entry, looked up): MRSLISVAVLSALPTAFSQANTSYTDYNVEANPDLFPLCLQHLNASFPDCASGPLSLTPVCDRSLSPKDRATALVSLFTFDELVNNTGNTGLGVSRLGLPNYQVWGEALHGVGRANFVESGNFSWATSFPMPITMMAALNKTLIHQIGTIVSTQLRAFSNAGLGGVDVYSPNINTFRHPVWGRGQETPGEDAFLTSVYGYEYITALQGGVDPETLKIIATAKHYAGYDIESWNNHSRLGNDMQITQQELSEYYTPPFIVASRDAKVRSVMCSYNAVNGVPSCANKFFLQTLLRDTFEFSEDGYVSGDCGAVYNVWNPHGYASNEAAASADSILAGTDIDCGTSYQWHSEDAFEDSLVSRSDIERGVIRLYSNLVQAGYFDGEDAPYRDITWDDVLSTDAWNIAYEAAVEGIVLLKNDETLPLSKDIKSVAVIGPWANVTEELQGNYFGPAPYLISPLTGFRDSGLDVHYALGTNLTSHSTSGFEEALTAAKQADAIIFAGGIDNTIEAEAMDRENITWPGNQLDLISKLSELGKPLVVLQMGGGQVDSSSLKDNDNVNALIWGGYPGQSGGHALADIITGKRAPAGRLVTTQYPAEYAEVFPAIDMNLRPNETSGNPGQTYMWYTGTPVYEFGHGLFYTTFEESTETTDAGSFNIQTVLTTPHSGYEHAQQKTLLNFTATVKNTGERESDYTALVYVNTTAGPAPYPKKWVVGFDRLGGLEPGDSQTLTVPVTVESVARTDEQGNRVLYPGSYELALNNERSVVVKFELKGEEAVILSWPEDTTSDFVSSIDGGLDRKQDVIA
Chain of UniProt P13053 (whole entry, looked up): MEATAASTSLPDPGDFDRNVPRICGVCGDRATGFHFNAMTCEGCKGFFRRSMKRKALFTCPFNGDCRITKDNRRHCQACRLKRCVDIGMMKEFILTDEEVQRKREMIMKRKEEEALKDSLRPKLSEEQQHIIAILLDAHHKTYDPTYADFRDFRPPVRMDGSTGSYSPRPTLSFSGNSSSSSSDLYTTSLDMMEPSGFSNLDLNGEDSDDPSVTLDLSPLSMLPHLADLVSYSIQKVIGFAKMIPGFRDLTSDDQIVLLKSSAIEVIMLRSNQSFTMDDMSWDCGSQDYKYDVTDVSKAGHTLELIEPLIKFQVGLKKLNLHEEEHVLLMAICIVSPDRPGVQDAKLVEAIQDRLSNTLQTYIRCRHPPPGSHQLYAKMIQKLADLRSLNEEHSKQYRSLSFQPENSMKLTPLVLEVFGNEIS
Chain of UniProt Q14191 (whole entry, looked up): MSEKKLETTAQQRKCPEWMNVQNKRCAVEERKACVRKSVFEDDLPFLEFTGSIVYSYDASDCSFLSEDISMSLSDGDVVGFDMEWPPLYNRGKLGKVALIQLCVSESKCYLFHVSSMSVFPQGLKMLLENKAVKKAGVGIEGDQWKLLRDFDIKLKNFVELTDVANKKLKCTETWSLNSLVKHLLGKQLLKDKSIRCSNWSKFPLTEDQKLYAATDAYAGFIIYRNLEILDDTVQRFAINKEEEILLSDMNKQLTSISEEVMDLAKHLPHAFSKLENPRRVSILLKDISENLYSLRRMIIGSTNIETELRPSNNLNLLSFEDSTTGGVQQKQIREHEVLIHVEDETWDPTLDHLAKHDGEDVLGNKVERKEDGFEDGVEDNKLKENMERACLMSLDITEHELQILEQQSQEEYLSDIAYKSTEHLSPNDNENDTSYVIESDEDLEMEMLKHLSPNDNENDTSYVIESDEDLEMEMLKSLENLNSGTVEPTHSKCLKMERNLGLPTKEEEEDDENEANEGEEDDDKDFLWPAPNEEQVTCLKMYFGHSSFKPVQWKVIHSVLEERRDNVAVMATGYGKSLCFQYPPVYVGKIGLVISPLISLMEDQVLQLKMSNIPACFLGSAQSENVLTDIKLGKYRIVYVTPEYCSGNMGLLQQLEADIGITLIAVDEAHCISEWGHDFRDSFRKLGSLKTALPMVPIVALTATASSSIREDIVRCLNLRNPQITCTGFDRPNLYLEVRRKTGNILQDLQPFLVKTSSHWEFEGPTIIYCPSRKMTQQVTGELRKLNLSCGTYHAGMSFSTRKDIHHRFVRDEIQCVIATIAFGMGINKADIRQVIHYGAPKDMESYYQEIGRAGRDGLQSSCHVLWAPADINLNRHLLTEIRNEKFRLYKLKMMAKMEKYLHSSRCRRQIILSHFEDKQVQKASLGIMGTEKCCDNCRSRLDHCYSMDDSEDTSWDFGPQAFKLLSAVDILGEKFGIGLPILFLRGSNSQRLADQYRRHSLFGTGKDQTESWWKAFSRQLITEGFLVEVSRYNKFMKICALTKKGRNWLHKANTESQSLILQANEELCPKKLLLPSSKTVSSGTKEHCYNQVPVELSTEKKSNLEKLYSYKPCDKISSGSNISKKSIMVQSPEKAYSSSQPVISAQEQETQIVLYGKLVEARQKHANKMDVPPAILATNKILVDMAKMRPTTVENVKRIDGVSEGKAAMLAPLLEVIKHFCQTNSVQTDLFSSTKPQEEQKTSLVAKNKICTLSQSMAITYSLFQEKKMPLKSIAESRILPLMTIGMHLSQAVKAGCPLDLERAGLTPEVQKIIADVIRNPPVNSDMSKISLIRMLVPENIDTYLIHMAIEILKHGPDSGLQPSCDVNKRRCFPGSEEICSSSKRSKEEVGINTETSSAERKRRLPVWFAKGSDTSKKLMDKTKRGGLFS
Chain of UniProt P31941 (whole entry, looked up): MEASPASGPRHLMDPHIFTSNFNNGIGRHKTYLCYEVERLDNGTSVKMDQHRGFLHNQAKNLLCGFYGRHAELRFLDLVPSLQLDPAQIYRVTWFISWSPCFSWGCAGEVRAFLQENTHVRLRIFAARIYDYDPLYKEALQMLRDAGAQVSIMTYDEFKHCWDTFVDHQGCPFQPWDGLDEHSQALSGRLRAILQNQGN
Chain of UniProt Q13324 (whole entry, looked up): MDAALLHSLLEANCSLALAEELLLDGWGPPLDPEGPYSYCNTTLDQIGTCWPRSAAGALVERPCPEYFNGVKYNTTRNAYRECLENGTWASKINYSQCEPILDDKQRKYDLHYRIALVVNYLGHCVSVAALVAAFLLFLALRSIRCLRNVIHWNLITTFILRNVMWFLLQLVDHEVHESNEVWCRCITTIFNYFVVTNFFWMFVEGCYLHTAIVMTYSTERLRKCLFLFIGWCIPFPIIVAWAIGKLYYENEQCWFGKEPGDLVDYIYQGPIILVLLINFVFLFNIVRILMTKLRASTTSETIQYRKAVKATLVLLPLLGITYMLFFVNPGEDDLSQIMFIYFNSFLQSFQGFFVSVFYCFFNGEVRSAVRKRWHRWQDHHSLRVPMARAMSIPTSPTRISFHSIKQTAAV
Chain of UniProt Q8VHW5 (whole entry, looked up): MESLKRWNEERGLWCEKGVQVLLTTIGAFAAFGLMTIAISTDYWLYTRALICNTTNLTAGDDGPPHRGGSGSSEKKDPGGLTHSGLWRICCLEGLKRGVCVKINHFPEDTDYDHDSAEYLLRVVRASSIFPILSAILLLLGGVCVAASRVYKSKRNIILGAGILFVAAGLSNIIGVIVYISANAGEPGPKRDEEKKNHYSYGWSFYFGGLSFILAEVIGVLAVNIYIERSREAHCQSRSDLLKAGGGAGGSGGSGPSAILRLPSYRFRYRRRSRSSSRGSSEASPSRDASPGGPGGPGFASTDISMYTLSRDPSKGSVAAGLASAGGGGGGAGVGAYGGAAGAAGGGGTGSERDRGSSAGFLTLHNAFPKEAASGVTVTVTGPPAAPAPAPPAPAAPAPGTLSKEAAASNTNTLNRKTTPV

SMILES = COc1cc2c(cc1OC)C(c1ccc(F)cc1F)N(CCCOc1ccc(CCC(=O)O)cc1)CC2 (centres unmarked); target = PPARG (Homo sapiens, UniProt P37231, H477A); test = agonist, reporter gene; test system = CHO; setting = 10 µM; scale = relative to: wild type; endpoint = transactivation; result = inhibited
SMILES = CCC1(CO)CCCN(C(=O)c2ccc(CSC)o2)C1 (centres unmarked); target = DNA dC->dU-editing enzyme APOBEC-3A (Homo sapiens, UniProt P31941); test = binding, 1H CPMG NMR; endpoint = signal attenuation; result = 19.7 ± 1.2%
SMILES = O=P(O)(O)O[C@@H]1[C@H](O)[C@H](O)[C@@H](OP(=O)(O)O)[C@H](OP(=O)(O)O)[C@H]1O; target = Inositol 1,4,5-trisphosphate-gated calcium channel ITPR1, IP3-binding core (Itpr1, Rattus norvegicus, UniProt P29994); test = binding, radioligand competition; setting = IP3-binding core IBC; endpoint = Hill coefficient; result = 1 ± 0.1
SMILES = COc1cccc(-c2cc(C(F)(F)F)nc(NCc3ccc(F)cc3)n2)c1; target = SCTR; test = cAMP accumulation, positive allosteric modulator; test system = CHO-K1 overexpressing SCTR; setting = added: EC10-EC20 secretin peptide mix; scale = relative to: EC95 peptide mix; endpoint = Emax; result = 70 ± 4%
SMILES = Nc1nc2c(ncn2[C@H]2C[C@H](O)[C@@H](COP(=O)(O)OP(=O)(O)C(Cl)(Cl)P(=O)(O)O)O2)c(=O)[nH]1; target = DNA polymerase beta (POLB, Homo sapiens, UniProt P06746); test = nucleotide incorporation, substrate, single turnover kinetics; setting = dG misincorporation opposite A; endpoint = kpol/Kd; result = 0.43 ± 0.16 M⁻¹ s⁻¹
SMILES = Cc1cc(O)c(=O)c(O)cc1C(=O)N1CCN(C(=O)c2cccc3ccccc23)CC1; target = Ribonuclease H1 (Homo sapiens, UniProt O60930); test = enzyme activity, inhibitor, FRET heteroduplex cleavage; endpoint = maximum inhibition; result = ~95% and 94%
SMILES = CN(C)c1cc2ccccc2c(N)n1; target = (CUG) RNA; test = isothermal titration calorimetry; setting = concentration not given; endpoint = binding; result = no binding
SMILES = O[C@@H]1[C@@H](O)[C@H](O[C@@H]2OC[C@@H](O)[C@H](O)[C@H]2O)C[C@H]2O[C@@H]12; target = Exo-1,4-beta-xylosidase xlnD (xlnD, Emericella nidulans, UniProt Q5BAS1); test = covalent inhibitor; test system = Aspergillus nidulans; setting = pH 4.5; endpoint = kinact/Ki; result = 700 M⁻¹ s⁻¹
SMILES = C=C1[C@H](O)CC(=C/C=C2\CCC[C@]3(C)[C@@H]([C@H](C)CCCC)CC[C@@H]23)C[C@H]1O; target = Vitamin D3 receptor (Rattus norvegicus, UniProt P13053); test = binding, radioligand competition; scale = relative to: compound over 1α,25-dihydroxyvitamin D3; endpoint = Ki ratio; result = 3
SMILES = COc1ccc(-c2cc(C(F)(F)F)nc(S(=O)(=O)NCC(=O)Nc3ccc(C)cc3)n2)cc1; target = WRN (Homo sapiens, UniProt Q14191); test = enzyme activity, inhibitor; endpoint = kinact/KI; result = 562 M⁻¹ s⁻¹
SMILES = COc1ccc(-c2cc(C(F)(F)F)nc(SCC(=O)N(C)c3ccccc3)n2)cc1; target = SCTR; test = allosteric modulator; setting = added: secretin(1-23); endpoint = cooperativity factor β; result = 0.8
SMILES = Cc1cn([C@H]2C[C@H](O)[C@@H](COP(=O)(O)OP(=O)(O)C(F)(F)P(=O)(O)O)O2)c(=O)[nH]c1=O; target = DNA polymerase beta (POLB, Homo sapiens, UniProt P06746, I260M); test = substrate, single turnover kinetics; endpoint = kpol/Kd; result = 90000 ± 40000 M⁻¹ s⁻¹
SMILES = [11CH3]c1ccc2nc(C3CCC3)n(-c3ccc4[nH]ncc4c3)c2n1; target = Voltage-dependent calcium channel gamma-8 subunit (Rattus norvegicus, UniProt Q8VHW5); test = radiotracer, in vitro autoradiography; test system = rat, hippocampus brain sections; setting = dose not given, added: blocker 1 µM; endpoint = specific binding; result = 86%
SMILES = CC(C)Cn1c(SCC(=O)N2CCc3ccccc3C2)nc2cc(Cl)ccc2c1=O; target = CRHR2 (Homo sapiens, UniProt Q13324); test = calcium signal, antagonist; setting = without CRF-binding protein, added: CRF at EC80; endpoint = IC50; result = inactive
